Experimental data from different studies.
Each line is one published result; not all experiments were run side by side. Several values in a cell are separate wells, animals, samples, runs or records. Numbers after ± are the reported error.

`CN1C(=O)[C@@H](NC(=O)c2nnc(Cc3ccccc3)[nH]2)COc2cccnc21` — result for “participants with any AE of special interest”: 0% (phase I multiple ascending dose; human, male and female; oral, 600 mg, 14 days).
For `C[C@@H]1COCCN1c1cc(C2([S@](C)(=N)=O)CC2)nc(-c2cc[nH]c3nccc2-3)n1`, the Rash incidence was 0% (Japanese advanced solid tumour patients; oral, 240 mg twice daily, any grade).
For `C[C@@H](Nc1cc(F)cc(F)c1)c1cc(C(=O)N(C)C)cc2c(=O)cc(N3CCOCC3)oc12`, “patients discontinuing for AE” read 0% (measured: Chills; advanced solid tumour patients; oral, dose not given, dose finding).
For `O=C(Nc1cnccc1Cl)N1CCN(Cc2ccc3c(c2)OC(F)(F)O3)CC1`, the AUC(0-24) was 6130 ng·h/mL (elderly men and women, plasma; oral, 100 mg once daily, day 1).
`O=C(O)CCC(=O)O.[2H]C([2H])([2H])Oc1cc(C)c2[nH]ccc2c1CN1CC[C@@H](C2CC2)C[C@H]1c1ccc(C(=O)O)cc1` gave a Tmax of 2.25 h (human, plasma; 125 mg twice daily, day 10, multiple ascending dose, median).
`CC(C)NCCCC[C@@H]1NC(=O)[C@H](Cc2ccc(O)cc2)NC(=O)[C@H](Cc2ccccc2)NC(=O)CC[C@H](C(=O)N[C@@H](CCCCNC(C)C)C(=O)N[C@@H](CCCCNC(=O)[C@H](CCC(=O)O)NC(=O)[C@H](CCC(=O)O)NC(=O)[C@H](CCC(=O)O)NC(=O)CN2CCN(CC(=O)O)CCN(CC(=O)O)CCN(CC(=O)O)CC2)C(N)=O)NC(=O)CNC(=O)[C@H](Cc2ccc3ccccc3c2)NC(=O)[C@@H](CCCNC(=N)N)NC1=O` [gallium-68 labelled] has a tissue uptake of 0.12 %ID/g (mouse with Granta-519 xenograft, heart; intravenous, 1 h).
With `CC(C)(C)c1cc(C(C)(C)C)c(NC(=O)c2c[nH]c3ccccc3c2=O)cc1O` the dose-adjusted solubility was 0.000353 mL⁻¹ (FaSSIF; literature solubility over dose).
Under “trough plasma concentration”, `CC1(C)CC[C@]2(NC(=O)C(C)(F)F)CC[C@]3(C)[C@H](C(=O)C=C4[C@@]5(C)C=C(C#N)C(=O)C(C)(C)[C@@H]5CC[C@]43C)[C@@H]2C1` is recorded as 37.7 ng/mL (human, plasma; oral, 150 mg, day 23 predose, mean).
`FC(F)(F)c1ccc(CNc2ccc(Cc3c[nH]c4ncc(Cl)cc34)cn2)cn1`: “treatment-related adverse events” 6% (measured: Pruritus; patients with advanced solid tumours, non-TGCT cohort; oral, 1000 mg/day, any grade).
`COc1ccc2nc(-c3ccccn3)c(N(C)c3ccc(F)cc3)n2c1` gave an AUC(0-inf)/AUC(0-last) of 102 ± 0.18% (male CD1 mice, fasted, plasma; oral, 50 mg/kg, together with: 1-aminobenzotriazole 50 mg/kg).
`CN(CCCNC(=O)c1cc(NC(=O)c2cc(NC(=O)c3cc(NC(=O)c4nc(NC(=O)C[C@H](CNC(=O)c5cc(NC(=O)c6cc(NC(=O)c7cc(NC(=O)c8nccn8C)cn7C)cn6C)cn5C)NC(=O)c5ccccc5)cn4C)cn3C)cn2C)cn1C)CCCNC(=S)Nc1ccc(-c2c3ccc(=O)cc-3oc3cc(O)ccc23)c(C(=O)O)c1`: “critical aggregation concentration” 1 µM (dynamic light scattering; 0.1% DMSO in PBS; 25 °C).
`CCCCOc1ccc([C@H]2CC[C@H](CCC)CC2)c(F)c1F` gave a median concentration of 6.23 ng/mL (human mother-newborn pairs, cord serum).
The recovery of `CC(C)(C)c1ccc(O)c(CN(Cc2cc(C(C)(C)C)ccc2O)C2CCC(NC(N)=O)CC2)c1` (stereo not drawn) is reported as 98.04 ± 0.16% (human liver microsomes; 2000 ng/mL, 24 h, 25 °C, short-term storage).
`CCOc1cc(/C=C2\CN(C(C)=O)CC3=C2OC(N)=C(C#N)C3c2ccc(O)c(OCC)c2)ccc1O` (stereo not drawn) has a body weight of 149 ± 2.1 g (Wistar rats, tumour-bearing; dose not given, day 21).
The neutropenia incidence of `CNCc1ccc(-c2[nH]c3cc(F)cc4c3c2CCNC4=O)cc1` is reported as 33.3% (human patients; oral, 480 mg twice daily, all grades).
`Cc1ccc([C@@H]2O[C@H](CO)[C@@H](O)[C@H](O)[C@H]2O)cc1Cc1ccc(-c2ccc(F)cc2)s1`: “urinary magnesium excretion change” 19.4 mg (Japanese type 2 diabetes patients; 25 mg, day 17, 24 h urine collection; baseline: baseline).
`O=C(Nc1ccc(OC(F)(F)Cl)cc1)c1cnc(N2CC[C@@H](O)C2)c(-c2ccn[nH]2)c1`: “grade ≥3 event rate” 4.3% (per laboratory record, measured: absolute neutrophil decrease; human patients; oral, dose not given).
`O=C(CCCCCCC(=O)Nc1ccc(CC[18F])cc1)NO` has a tissue uptake of 5 ± 0.7 %ID/g (athymic nu/nu male mice, LNCaP xenograft, kidney; intravenous, 1 h).
For `[18F]c1ccc(-c2ccc3c(c2)[nH]c2ccncc23)cn1`, the SUV was 0.903 ± 0.19 (ex vivo biodistribution; B6SJL mouse, normal, bone; intravenous, 30 min).
With `CC[C@@H]1CN(C(=O)NCC(F)(F)F)C[C@@H]1c1cnc2cnc3[nH]ccc3n12` the Vc/F was 141 L (population PK model; healthy, RA and CD subjects, plasma; oral, immediate-release formulation).
`O=C(NCCCNc1nc(Nc2cccc(NC(=O)N3CCCC3)c2)ncc1C1CC1)C1CCC1` has an effective permeability of 0.597 ×10⁻⁶ cm/s (PAMPA; PBS; 5 h, pH 7.4).
`N#CCNC(=O)c1ccc(-c2ccnc(Nc3ccc(N4CCOCC4=O)cc3)n2)cc1` has a Cmax increase of 30% (healthy volunteers, plasma; dose not given, together with: ritonavir multiple-dose; baseline: compound alone).
`O=C(Nc1nc2cccc(-c3ccc(CN4CCS(=O)(=O)CC4)cc3)n2n1)C1CC1` — result for “patients with lipase increased”: 8.3% (rheumatoid arthritis patients; oral, 100 mg twice daily, 4 weeks, regardless of relatedness).
Under “hypoglycaemia-related adverse event”, `OC[C@H]1O[C@@H](c2ccc(F)c(Cc3cc4ccccc4s3)c2)[C@H](O)[C@@H](O)[C@@H]1O` is recorded as 2% (Japanese patients, type 1 diabetes; oral, 25 mg/day, onset day 4; baseline: patients).
Under “subjects with nausea”, `CN1CCN(c2cccc3c2CCN(C(=O)/C=C/c2c(-n4cnnn4)ccc(Cl)c2F)[C@@H]3C(=O)Nc2ccc(C(=O)O)cc2)C(=O)C1` is recorded as 33.3% (healthy human subjects; intravenous infusion, 1.5 mg/h, 2 h).
`NC1(C(=O)N[C@@H](CCO)c2ccc(Cl)cc2)CCN(c2nc[nH]c3nccc2-3)CC1` has a Tmax of 1 h (LC-MS/MS, non-compartmental; human patients, plasma; 160/320 mg cohort, cycle 0, median, together with: enzalutamide).
With `Cc1cc(C(=O)NC(C)(C)COc2cccc3c2C(N)=NS(=O)(=O)N3)cc(C)n1` the dose-normalised AUC(0-last) was 1.91 ng·h/mL/mg/kg (Sprague-Dawley rat, female, plasma; oral, 10 mg/kg).
With `COc1cc2c3c(n(CCCN4CCOCC4)c(=O)c2cc1OC)-c1cc2c(cc1C3=O)OCO2` the Vz was 568 L/m² and 954 L/m² (beagle dog, female, plasma; intravenous infusion, 430 mg/m^2, 1 h infusion).
The body weight of `Cc1nc(-c2ccc(OCC(C)C)c(C#N)c2)sc1C(=O)O` is reported as 46 g and 40 g and 35.6 g and 43.4 g and 37.6 g (KM mouse, chronic hyperuricaemia model; dose not given, day 30).
For `C[C@@H](N)C1CCN(S(=O)(=O)c2cccc3cnccc23)CC1`, the TEAE incidence was 0% (measured: Tachycardia; healthy volunteers; 150 mg, fasted).
`C=CC(=O)NC1CCN(c2ncc3ncnc(Nc4ccc(Oc5ccc6c(c5)ncn6C)c(C)c4)c3n2)CC1` — result for “adverse events incidence”: 0% (measured: investigations (SOC); human male; oral, dose not given, CTCAE on-treatment AEs).
For `O=C1CC[C@H](N2Cc3cc(N4CCN(CC5CCN(c6ccc([C@@H]7c8ccc(O)cc8CC[C@@H]7c7ccccc7)cc6)CC5)CC4)ccc3C2=O)C(=O)N1`, “participants with TEAE dizziness” read 8.3% (human; oral, 200 mg, together with: rosuvastatin 10 mg).
`CCCOc1ccc([C@H]2CNC(=O)N2c2ccc3[nH]cnc3c2)cc1` gave an AUC(0-12h) of 2240 ng·h/mL (human volunteers fasted, plasma; oral tablet, 200 mg single dose, crossover, geometric mean).
For `CC(C)(C(=O)N1CCOc2c(C#N)cncc2C1)C(F)F`, “subjects with adverse event” read 0% (measured: upper abdominal pain; human; oral, 20 mg once daily, 14 days, multiple ascending dose).
With `C=CCN1CC(=O)N2[C@@H](Cc3ccc(O)cc3F)C(=O)N(Cc3cccc(N4CC(N5CCN(CC)CC5)C4)n3)C[C@@H]2N1C(=O)NCc1ccccc1` the treatment-related diarrhoea was 0% (advanced solid tumour patients; oral, 20 mg twice daily, grade ≥3, dose-escalation).
Under “serious adverse events”, `CCO` is recorded as 0% (human).
The concentration of `O=C(N[C@H](Cc1c[nH]c2ccccc12)C(=O)Nc1ccncc1)c1ccc(N2CCN(c3ccc(F)cc3F)CC2)cc1F` is reported as 1350 nM (Swiss Webster mouse, female, brain; oral, 50 mg/kg, 2 h, 20% Kolliphor vehicle).
With `OC[C@H]1O[C@H](O[C@]2(CCl)O[C@H](CCl)[C@@H](O)[C@@H]2O)[C@H](O)[C@@H](O)[C@H]1Cl` the inhibition was 30.7% (THP-1; pyroptotic LDH release; 2 µM, 40 min, together with: LPS then nigericin).
For `Cc1cc(-c2nccc3c2ccn3CC(=O)Nc2ccc(-c3cnccn3)cn2)ccn1`, the terminal half-life was 10.7 h (human, plasma; oral, 20 mg once daily, day 1, geometric mean).
With `CN(C)c1ncnc2nc[nH]c12` the inhibition was 7.15% (THP-1; pyroptotic LDH release; 2 µM, 40 min, together with: LPS then nigericin).
For `CCn1cc(C(=O)N2CCOCC2)c(=O)c2cc(NC3Cc4ccccc4C3)cnc21`, the AUC(0-last) was 504 ng·h/mL (human, fasted; oral suspension, 15 mg single dose, arithmetic mean).
`O=C(O)c1cccc(C(=O)O)c1` — result for “apparent dissolution enthalpy”: 5.92 kcal/mol (betaine/glycerol DES-water; DES mass fraction 0.20).

Repeated from above:
`CCCCOc1ccc([C@H]2CC[C@H](CCC)CC2)c(F)c1F` gave a median concentration of 6.23 ng/mL (human mother-newborn pairs, cord serum).
The recovery of `CC(C)(C)c1ccc(O)c(CN(Cc2cc(C(C)(C)C)ccc2O)C2CCC(NC(N)=O)CC2)c1` (stereo not drawn) is reported as 98.04 ± 0.16% (human liver microsomes; 2000 ng/mL, 24 h, 25 °C, short-term storage).
`CCOc1cc(/C=C2\CN(C(C)=O)CC3=C2OC(N)=C(C#N)C3c2ccc(O)c(OCC)c2)ccc1O` (stereo not drawn) has a body weight of 149 ± 2.1 g (Wistar rats, tumour-bearing; dose not given, day 21).
The neutropenia incidence of `CNCc1ccc(-c2[nH]c3cc(F)cc4c3c2CCNC4=O)cc1` is reported as 33.3% (human patients; oral, 480 mg twice daily, all grades).
